Experimental data of several laboratories.
Lines come from different studies, so protocols differ. Numbers after ± are the reported error.
WDR5/DCAF1: WDR5/DCAF1 (Homo sapiens, UniProt P61964+Q9Y4B6)
Methyl-accepting chemotaxis protein CtaA sensing domain: Methyl-accepting chemotaxis protein CtaA, sensing domain (Pseudomonas fluorescens, UniProt Q3K7T6)
Neuropeptide FF receptor 2: Neuropeptide FF receptor 2 (Homo sapiens, UniProt Q9Y5X5)
IDE: Insulin-degrading enzyme (IDE, Homo sapiens, UniProt P14735)
PLA2G6: 85/88 kDa calcium-independent phospholipase A2 (PLA2G6, Homo sapiens, UniProt O60733)

The DC50 of `C[C@@H]1CN(c2ccc(-c3cc(C(=O)NCCOCCOCCOCCOCCOCCOCCOCCOCCOCCNC(=O)/C=C/c4[nH]cc(C(=O)N[C@@H](CC(N)=O)c5ccc(F)c(Cl)c5)c4-c4ccc(Cl)cc4F)ccc3F)cc2NC(=O)c2c[nH]c(=O)cc2C(F)(F)F)C[C@H](C)N1C` is reported as 0.0402 ± 0.0121 µM (WDR5/DCAF1; degrader, measured: HiBiT-WDR5; MV4-11 expressing HiBiT-WDR5; 24 h).
With `C[C@H](N)C(=O)O` the Kd was 5 ± 1 µM (Methyl-accepting chemotaxis protein CtaA sensing domain; binding, thermal shift, unfolding equilibrium).
`C[C@@H]1CN(c2ccc(-c3cc(C(=O)NCCOCCOCCOCCOCCOCCOCCNC(=O)/C=C/c4[nH]cc(C(=O)N[C@@H](CC(N)=O)c5ccc(F)c(Cl)c5)c4-c4ccc(Cl)cc4F)ccc3F)cc2NC(=O)c2ccc(F)cc2C(F)(F)F)C[C@H](C)N1C` has a DC50 of 0.054 ± 0.018 µM (WDR5/DCAF1; degrader, measured: HiBiT-WDR5; MV4-11 expressing HiBiT-WDR5; 24 h).
For `CCCNC(=O)[C@@H]1C[C@H](NCc2ccc(OC)cc2)CN1Cc1ccccc1Cl`, the Kb was greater than 10 µM (Neuropeptide FF receptor 2; calcium signal, antagonist, fluorescence).
`O=S(=O)(Nc1cccn(O)c1=S)c1ccsc1` gave a Ki of 12 µM (IDE; substrate degradation, fluorescence polarisation; mean of physiological substrates).
`CC(C)[C@H](N)C(=O)O` has a Kd of 0.5 ± 0.1 µM (Methyl-accepting chemotaxis protein CtaA sensing domain; binding, thermal shift, curve fitting).
With `CC(C)(C)Nc1nc2cc(Cl)c(Cl)cc2nc1S(C)(=O)=O` the EC50 was roughly 0.9 µM (Gasdermin-D (GSDMD, Homo sapiens, UniProt P57764); pore formation, activator, liposome leakage).
`Cc1nc(-c2ccc(OCC(C)C)c(C#N)c2)sc1C(=O)NC1CCOCC1` gave an EC50 of 5.2 µM (Grm2/Grm4 (Rattus norvegicus, UniProt P31421+P31423); positive allosteric modulator, thallium flux; HEK293 with GIRK; together with: EC20 glutamate).
For `CCOC(=O)Nc1ccc(SCCN2CCCCC2)nc1N`, the EC50 was greater than 10 µM (Voltage-gated potassium channel, KQT; KCNQ2(Kv7.2)/KCNQ3(Kv7.3) (KCNQ3/KCNQ2, Homo sapiens, UniProt O43525+O43526); thallium flux, opener, fluorescence thallium flux; HEK293 expressing KV7.2/3; 30 min).
For `CCCCCCOc1ccc(CCCCC(=O)C(=O)NCCCC(=O)OCC)cc1`, the XI(50) was 0.013 mole fraction (PLA2G6; enzyme activity, inhibitor, mixed micelle).
With `CC(C)C[C@H](N)C(=O)O` the Kd was 13 ± 3 µM (Methyl-accepting chemotaxis protein CtaA sensing domain; binding, thermal shift, unfolding equilibrium; 25 °C).
`CCC[C@H]1OC(=O)[C@@H]1CCCc1ccc2ccccc2c1` (racemic) has an XI(50) of 0.0003 mole fraction (PLA2G6; enzyme activity, inhibitor, mixed micelle; 50% inhibition).
With `C[C@H](CCC(=O)O)[C@H]1CC[C@H]2[C@@H]3C[C@H](O)[C@@H]4C[C@H](O)CC[C@]4(C)[C@H]3CC[C@]12C` the Ki was 10.4 µM (SLC10A1 (Homo sapiens, UniProt Q14973); transporter uptake, inhibitor, radiometric).
`Cn1ccc(S(=O)(=O)Nc2cccn(O)c2=S)n1` gave a Ki of 11 µM (IDE; substrate degradation, fluorescence polarisation; mean of physiological substrates).
The EC50 of `Nc1ncnc2c1ncn2[C@@H]1O[C@H](COP(=O)(O)OP(=O)(O)OC[C@H]2O[C@@H](O)C(O)[C@H]2O)C(O)[C@@H]1OP(=O)(O)O` (stereo partly drawn) is reported as 85 ± 8 µM (TRPM2 (Nematostella vectensis, UniProt A7T1N0, Y264A); channel activation, activator, inside-out patch clamp; Y264A mutant, currents not saturated, together with: 125 µM Ca2+ and 2.5 µM PIP2).
`O=S(=O)(Nc1cccn(O)c1=S)c1ccc(Br)s1` gave a Ki of 5 µM (IDE; substrate degradation, fluorescence polarisation; mean of physiological substrates).
For `CCC[C@@H]1OC(=O)[C@@H]1CCCc1ccc(OC)cc1` (racemic), the XI(50) was 0.038 mole fraction (PLA2G6; enzyme activity, inhibitor, mixed micelle; 50% inhibition).
With `Cc1ccc(NS(=O)(=O)c2cccs2)c(=S)n1O` the Ki was 12 µM (IDE; substrate degradation, fluorescence polarisation; mean of physiological substrates).
For `COc1ccc(CN[C@H]2C[C@@H](C(=O)NCCc3ccc(F)cc3)N(Cc3ccccc3Cl)C2)cc1`, the Kb was greater than 10 µM (Neuropeptide FF receptor 2; calcium signal, antagonist, fluorescence).
With `CCC[C@H]1OC(=O)[C@@H]1CCCCc1ccccc1` (racemic) the XI(50) was 2.1e-06 mole fraction (PLA2G6; enzyme activity, inhibitor, mixed micelle; 50% inhibition).
With `NS(=O)(=O)c1cccn(O)c1=S` the Ki was 58 µM (IDE; substrate degradation, fluorescence polarisation; mean of physiological substrates).
`O=C(CSc1nnc(NCc2ccccc2)s1)NCC1CCCCC1` gave a Kb of 2.06 ± 0.17 µM (Glutamate NMDA receptor; Grin1/Grin2a (Grin1/Grin2a, Rattus norvegicus, UniProt P35439+Q00959); ion current, antagonist, two-electrode voltage clamp; Xenopus laevis oocytes; Schild plot, slope fixed unity).
`CNC(=O)[C@@H]1C[C@H](NCc2ccc(OC)cc2)CN1Cc1ccccc1Cl` has a Kb of greater than 10 µM (Neuropeptide FF receptor 2; calcium signal, antagonist, fluorescence).
`Nc1nc2c(ncn2[C@@H]2O[C@H](COP(=O)(O)OP(=O)(O)OP(=O)(O)O)[C@@H](O)[C@H]2O)c(=O)[nH]1` has a Kd of 216 ± 74 µM (tRNA(His) guanylyltransferase (THG1, Saccharomyces cerevisiae, UniProt P53215, E78A); nucleotidyl transfer, substrate, single-turnover kinetics; pH 7.5, room temperature, together with: ppp-tRNA(His)).
For `Cc1csc(S(=O)(=O)Nc2cccn(O)c2=S)c1`, the Ki was 11 µM (IDE; substrate degradation, fluorescence polarisation; mean of physiological substrates).
With `COc1ccc(CN[C@H]2C[C@@H](C(=O)NCCc3ccc(NC(C)=O)cc3)N(Cc3ccccc3Cl)C2)cc1` the Kb was 2.51 ± 0.08 µM (NPFFR1 (Homo sapiens, UniProt Q9GZQ6); calcium mobilization, antagonist; CHO; 15 min, together with: NPFF).
The Kd of `N[C@@H](CO)C(=O)O` is reported as 13 ± 1 µM (Methyl-accepting chemotaxis protein CtaA (Pseudomonas fluorescens, UniProt Q3K7T6); binding, ITC; melting temperature).
With `O=S(=O)(Nc1ccn(O)c(=S)c1)c1cccs1` the Ki was 15 µM (IDE; substrate degradation, fluorescence polarisation; mean of physiological substrates).
`Nc1ncnc2c1ncn2[C@@H]1O[C@H](COP(=O)(O)OP(=O)(O)OP(=O)(O)O)[C@@H](O)[C@H]1O` gave a Kd of 170 ± 40 µM (tRNA(His) guanylyltransferase (THG1, Saccharomyces cerevisiae, UniProt P53215, R133A); tRNA(His) adenylylation, substrate, single-turnover kinetics; pH 6.0, room temperature, together with: p-tRNA(His)).
With `CC(CCC[C@@H](C)[C@H]1CC[C@H]2C3=CCC4CC(=O)C=C[C@]4(C)[C@H]3CC[C@]12C)C(=O)O` (stereo partly drawn) the EC50 was 0.146 µM (daf-12 (Caenorhabditis elegans, UniProt G5EFF5); reporter gene, agonist, luciferase).

For quick reference, copied from above:
The EC50 of `Nc1ncnc2c1ncn2[C@@H]1O[C@H](COP(=O)(O)OP(=O)(O)OC[C@H]2O[C@@H](O)C(O)[C@H]2O)C(O)[C@@H]1OP(=O)(O)O` (stereo partly drawn) is reported as 85 ± 8 µM (TRPM2 (Nematostella vectensis, UniProt A7T1N0, Y264A); channel activation, activator, inside-out patch clamp; Y264A mutant, currents not saturated, together with: 125 µM Ca2+ and 2.5 µM PIP2).
`O=S(=O)(Nc1cccn(O)c1=S)c1ccc(Br)s1` gave a Ki of 5 µM (IDE; substrate degradation, fluorescence polarisation; mean of physiological substrates).
For `CCC[C@@H]1OC(=O)[C@@H]1CCCc1ccc(OC)cc1` (racemic), the XI(50) was 0.038 mole fraction (PLA2G6; enzyme activity, inhibitor, mixed micelle; 50% inhibition).
